Assay results collected from several papers.
Protocols differ between the studies behind these lines.

Cc1cc(Nc2cc3ncccc3c(N[C@@H]3C[C@H]4CC[C@@H](C3)N4CCC#N)n2)n[nH]1 — subjects with epistaxis (healthy human; oral, 300 mg single dose, 2 weeks): 0%
C[C@@H](c1nc(-c2ccc(C#N)cc2)cs1)[C@](O)(Cn1cncn1)c1cc(F)ccc1F — subjects with TEAEs (item: gastrointestinal disorders (SOC); humans; oral, dose not given, together with: ketoconazole): 8.3%
CC(C)n1c(Nc2cccnc2)nc2cnc(Nc3ccc(N4CCN(C)CC4)cc3)nc21 — subjects with TEAE (item: nodal rhythm; healthy human, male; oral, dose not given, CTCAE grade 1-3): 2.4%
C[C@H]1CN(C(=O)CC#N)[C@]12CCN(c1ncnc3[nH]ccc13)C2 — subjects with Nausea (healthy human; oral, 3 mg single): 0%
CNC(=O)c1ccc(-c2cnc3ncc(Cc4ccc5ncccc5c4)n3n2)cc1F — subjects with adverse event (healthy human subjects; oral, 200 mg, Nausea, all grades, all causality, together with: itraconazole 200 mg/day): 11.1%
Cc1cc(-c2nccc3c2ccn3CC(=O)Nc2ccc(-c3cnccn3)cn2)ccn1 — subjects with cardiac disorders TEAEs (human; SAD part, single 7 mg dose): 0%
CC(C)(C(=O)N1CCOc2c(C#N)cncc2C1)C(F)F — subjects with TEAE (item: blood creatine phosphokinase increased; healthy humans, both sexes; oral, 30 mg single dose): 0%
CN1CCN(c2cccc3c2CCN(C(=O)/C=C/c2c(-n4cnnn4)ccc(Cl)c2F)[C@@H]3C(=O)Nc2ccc(C(=O)O)cc2)C(=O)C1 — subjects with headache (healthy human subjects; intravenous infusion, 4 mg/h, 2 h): 0%

For quick reference, copied from above:
CC(C)n1c(Nc2cccnc2)nc2cnc(Nc3ccc(N4CCN(C)CC4)cc3)nc21 — subjects with TEAE (item: nodal rhythm; healthy human, male; oral, dose not given, CTCAE grade 1-3): 2.4%
